Measurements of several laboratories.
Every numbered part comes from another study and shows a few of its results, in no order. Positions count from the first letter of the parent shown.

Block 1 — technique: DHFR PCA, deep sequencing; sample: yeast; added: (+)-ABA 4.8 µM; reference: wild-type fitted maximum; reading: higher = stronger binding
Target: ABI1, truncated, D143A, DHFR fusion (Arabidopsis thaliana)
Setting: methotrexate growth selection, single substitutions
Parent: PYL1, truncated, DHFR fusion (Arabidopsis thaliana); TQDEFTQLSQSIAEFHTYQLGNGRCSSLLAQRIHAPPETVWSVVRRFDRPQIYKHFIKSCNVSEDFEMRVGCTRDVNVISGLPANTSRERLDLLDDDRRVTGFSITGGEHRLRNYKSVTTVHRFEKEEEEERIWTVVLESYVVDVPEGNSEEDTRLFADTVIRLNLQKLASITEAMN
`Y53R` — result for “relative binding score”: 7.11%.
For `C60A`, “relative binding score” read 27.3%.
Under “relative binding score”, `M68V` is recorded as 63.1%.
`S171M`: “relative binding score” 77.3%.
`R98H`: “relative binding score” 41.6%.
`N149F`: “relative binding score” -9.52%.
Under “relative binding score”, `R90C` is recorded as 33%.
`K116P` — result for “relative binding score”: -6.32%.

Block 2 — technique: aptamer microarray, sandwich; form: DNA with 2'F-ANA; sample: in vitro; tested at: 200 nM; added: Cy3 exosite-II aptamer, 400 nM; reading: higher = stronger binding; oligonucleotide: GGTTGGTGTGGTTGG
Target: Prothrombin, mature alpha-thrombin (F2, Homo sapiens, UniProt P00734)
Setting: whole 15-mer aptamer, many near background
`2'F-ANA at 1 2 3 4 5 6 7 8 9` — result for “mean fluorescence intensity”: 76 a.u.
For `2'F-ANA at 4 5 9 11 14 15`, “mean fluorescence intensity” read 44.8 a.u.
`2'F-ANA at 1 2 5 6 7 8 9 12 13 15`: “mean fluorescence intensity” 76.6 a.u.
For `2'F-ANA at 1 2 3 6 12 13 14`, “mean fluorescence intensity” read 82.8 a.u.
`2'F-ANA at 1 2 3 7 8 10 14 15`: “mean fluorescence intensity” 54.2 a.u.
Under “mean fluorescence intensity”, `2'F-ANA at 2 4 9 15` is recorded as 319 a.u.
Under “mean fluorescence intensity”, `2'F-ANA at 2 4 5 6 11 13 14 15` is recorded as 50.6 a.u.
`2'F-ANA at 2 4 5 8 9 12 14 15`: “mean fluorescence intensity” 55.3 a.u.

Block 3 — target: CCNB3, cyclin fold, Cln2 fusion (human); technique: yeast growth competition, sequencing; sample: yeast; setting: strong parent motif; reference: not given; reading: higher = stronger binding
Parent: BRCA2 docking peptide (human); PSIKRNLLNEFDR
`R5Q`: “normalised enrichment score” 0.435.
For `R13G`, “normalised enrichment score” read 1.01.
For `I3Y`, “normalised enrichment score” read 0.721.
`R13M` — result for “normalised enrichment score”: 0.878.
`N6R` — result for “normalised enrichment score”: 0.417.
`S2A`: “normalised enrichment score” 1.07.
For `N9A`, “normalised enrichment score” read 2.78.
Under “normalised enrichment score”, `N9Y` is recorded as 1.72.

Other studies, line by line
Parent: PafA, mature enzyme, eGFP fusion (Elizabethkingia meningoseptica, UniProt Q9KJX5); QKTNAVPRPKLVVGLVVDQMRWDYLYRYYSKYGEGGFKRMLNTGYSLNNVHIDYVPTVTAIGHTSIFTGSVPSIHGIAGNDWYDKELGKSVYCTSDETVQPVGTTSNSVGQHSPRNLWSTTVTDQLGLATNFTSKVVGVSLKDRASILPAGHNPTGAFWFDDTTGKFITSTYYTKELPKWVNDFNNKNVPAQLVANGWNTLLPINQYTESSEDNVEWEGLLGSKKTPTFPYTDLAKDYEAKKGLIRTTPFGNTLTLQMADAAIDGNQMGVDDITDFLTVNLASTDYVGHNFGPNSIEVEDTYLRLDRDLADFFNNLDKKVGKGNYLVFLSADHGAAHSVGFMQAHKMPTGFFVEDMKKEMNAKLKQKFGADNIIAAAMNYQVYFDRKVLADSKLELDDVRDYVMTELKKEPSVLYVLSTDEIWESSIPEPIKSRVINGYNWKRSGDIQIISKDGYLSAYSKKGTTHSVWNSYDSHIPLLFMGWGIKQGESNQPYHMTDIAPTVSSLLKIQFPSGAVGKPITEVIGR
`K365V`: “oxyanion analog dissociation constant” 0.881 µM (vanadate, free oxyanion; microfluidic competitive inhibition; in vitro, cell-free expressed; not given, derived from inhibition constants, unchanged parent 676 nM; lower = stronger binding).

For quick reference, copied from above (block 2):
`2'F-ANA at 1 2 3 4 5 6 7 8 9` — result for “mean fluorescence intensity”: 76 a.u.
For `2'F-ANA at 4 5 9 11 14 15`, “mean fluorescence intensity” read 44.8 a.u.
`2'F-ANA at 1 2 5 6 7 8 9 12 13 15`: “mean fluorescence intensity” 76.6 a.u.
